Measurements from different studies.
Compare with care: the assays were run in different laboratories. Numbers after ± are the reported error.
Organism: human cytomegalovirus

The IC50 of O=c1c(-c2ccc(O)cc2)coc2cc(O)cc(O)c12 is reported as 3.2 ± 0.1 µM (viral replication, titre reduction; HEL fibroblasts, Towne).
Cc1nn(Cc2ccc(O)c(C=O)c2)c(=O)[nH]c1=O has an EC50 of 63.1 µM (cytopathic effect; HEL fibroblasts, AD-169).
O=C(NO)c1ccc(O)c(O)c1 has an EC50 of 82 ± 32 µM (viral spread, GFP reporter; MRC-5, BADrUL131-Y4 (AD169, GFP); 14 d).
O=c1c(O)c(-c2ccccc2)oc2cc(O)cc(O)c12 has an IC50 of over 40 µM (viral replication, titre reduction; HEL fibroblasts, Towne).
With Cc1cn(Cc2ccc(O)c(C=O)c2)c(=O)[nH]c1=O the EC50 was over 20 µM (cytopathic effect; HEL fibroblasts, AD-169).
O=c1c(-c2ccc(O)cc2)coc2cc(O)ccc12 gave an IC50 of 7.2 µM (viral replication, titre reduction; HEL fibroblasts, Towne).
NC(=O)NO gave an EC50 of 131 ± 18 µM (viral spread, GFP reporter; ARPE-19, BADrUL131-Y4 (AD169, GFP); 14 d).
With COc1cc(C2c3cc4c(cc3C(O)C3COC(=O)C23)OCO4)cc(OC)c1O (stereo not shown) the EC50 was 3.4 µM (viral IE2 expression; MRC-5, AD169 IE2-YFP; 18 h post infection, 1 h pretreatment).
O=Cc1cc(Cn2cc(F)c(=O)[nH]c2=O)ccc1O gave an EC50 of over 100 µM (cytopathic effect; HEL fibroblasts, Davis).
Nc1ccn(C[C@@H](CO)OCP(=O)(O)OCCOCCOCCOCCOCCOCCO)c(=O)n1 has an EC50 of 0.6 to 0.95 µM (viral replication; HEL, AD-169).

Some of these lines once more:
O=Cc1cc(Cn2cc(F)c(=O)[nH]c2=O)ccc1O gave an EC50 of over 100 µM (cytopathic effect; HEL fibroblasts, Davis).
